Results of several laboratories.
Lines come from different studies, so protocols differ. Values joined by “and” are separate records of one study, mostly repeats; a detail may differ. Converted amounts (≈) assume the structure as drawn.

SMILES	organism	test	system	conditions	scale	quantity	result
Fc1ccc(N/N=C/c2ccc(-c3ccc(/C=N/Nc4ccc(F)cc4)cc3)cc2)cc1	Aspergillus terreus		ATCC MYA-3633		reference: mammalian CC50 over MIC	selectivity ratio	< 0.6
COC(=O)[C@H](Cc1ccc(O)cc1)NCc1cc2ccccc2nc1SC	Pseudomonas aeruginosa			8 µg/mL, with: pentamidine 50 µM	reference: control	growth	98%
Fc1ccccc1N/N=C/c1ccc(-c2cccc(/C=N/Nc3ccccc3F)c2)cc1	Aspergillus terreus		ATCC MYA-3633		reference: mammalian CC50 over MIC	selectivity ratio	< 0.5
COc1ccc(Nc2cnnc3cc(-c4cnc(N5CCCN(C)CC5)nc4)ccc23)cc1	Schistosoma mansoni		adult worms	10 µM, 1 h	direction not given	phenotypic severity score	0
CC1=C(Cn2cc(CN3CCOCC3)nn2)C(=O)c2ccccc2C1=O	Schistosoma mansoni		adult worms	10 µM, 24 h		killing	29.6%
CN1CCN(S(=O)(=O)c2ccc(-c3ccc4c(Nc5ncccn5)cnnc4c3)cc2)CC1	Schistosoma mansoni		adult worms	10 µM, 24 h	direction not given	phenotypic severity score	0
N#CC(=C1C=CC(=NOC(=O)c2ccccc2)C=C1)c1ccccc1	Kluyveromyces marxianus	broth dilution	ATCC 204093	48 h, 37 °C		MFC	256 µg/mL (≈ 784 µM)
CC1=C(Cc2cn(CCO)nn2)C(=O)c2ccccc2C1=O	Schistosoma mansoni		adult worms	25 µM, 48 h		killing	55.2%
OC(Cn1cncn1)(Cn1cncn1)c1ccc(F)cc1F	Candida albicans	broth microdilution	50	24 h, compound alone		MIC	4 µg/mL (≈ 13.1 µM)
CN(C)c1ccc(O)c2c1C[C@H]1C[C@H]3[C@H](N(C)C)C(O)=C(C(N)=O)C(=O)[C@@]3(O)C(O)=C1C2=O	Brugia malayi		SCID mouse	dose not given, 6 weeks post-treatment, dosing x28d		maximum adult worm burden	4 worms per mouse
C=C1[C@H](CO)[C@@H](O)C[C@@H]1n1cnc2c(=O)[nH]c(N)nc21	Hepatitis B virus	refers to: HBV pgRNA	chronic HBV infection patients	oral, 0.5 mg/day, 28 days	reference: baseline	change in serum pgRNA	-0.96 log10 copies/mL
COc1ccc(Nc2cnnc3cc(-c4ccc(N5CCN(C)CC5)cc4)ccc23)cc1	Schistosoma mansoni		adult worms	10 µM, 5 h	direction not given	phenotypic severity score	0
CN[C@H](CC(C)C)C(=O)N[C@H]1C(=O)N[C@@H](CC(N)=O)C(=O)N[C@H]2C(=O)N[C@H]3C(=O)N[C@H](C(=O)N[C@H](C(=O)O)c4cc(O)cc(O)c4-c4cc3ccc4O)[C@H](O)c3ccc(c(Cl)c3)Oc3cc2cc(c3O[C@@H]2O[C@H](CO)[C@@H](O)[C@H](O)[C@H]2O[C@H]2C[C@](C)(N)[C@H](O)[C@H](C)O2)Oc2ccc(cc2Cl)[C@H]1O	Staphylococcus aureus	broth microdilution	methicillin-resistant isolates			MIC50	1 µg/mL (≈ 0.69 µM)
N=C(N)c1ccc(OCc2cccc(COc3ccc(C(=N)N)cc3)c2)cc1	Escherichia coli		BW25113	concentration not given, lowest-FICI combination, with: novobiocin		MIC in combination	25 µg/mL
CC1=C(Cn2cc([Si](C)(C)C)nn2)C(=O)c2ccccc2C1=O	Schistosoma mansoni		NTS		reference: L6 CC50 over IC50	selectivity index	11.6
Cc1ccc(Nc2cnnc3ccc(-c4ccc(N5CCCN(C)CC5)cc4)cc23)cn1	Schistosoma mansoni		adult worms	10 µM, 24 h	direction not given	phenotypic severity score	4
COc1cc(F)c(-c2c(Cl)nc(-c3cccs3)nc2N[C@H](C)C(C)C)c(F)c1	Schistosoma mansoni	worm motility	adult worms ex vivo	24 h		EC50	< 300 nM
COc1ccc(Nc2cnnc3ccc(-c4ccc(N5CCN(C)CC5)cc4)cc23)cc1Cl	Schistosoma mansoni		adult worms	10 µM, 1 h	direction not given	phenotypic severity score	0
C=CC[C@@H]1c2ccc(OC)c(OC)c2CN2CCc3cc4c(cc3[C@H]12)OCO4	Staphylococcus aureus		P2rx7+/+ mice, skin wound infection	dose not given, day 4	reference: day 0	relative wound size	0.48 and 0.27 and 0.58 and 0.61 and 0.57 and 0.82
CO[C@H]1/C=C/O[C@@]2(C)Oc3c(C)c(O)c4c(c3C2=O)C2=NC3(CCN(CC(C)C)CC3)NC2=C(NC(=O)/C(C)=C\C=C\[C@H](C)[C@H](O)[C@@H](C)[C@@H](O)[C@@H](C)[C@H](OC(C)=O)[C@@H]1C)C4=O	Mycobacteroides abscessus	intracellular growth, visual read	THP-1 derived macrophages, ATCC 19977			IC50	933 nM
C[C@H]1c2cccc(O)c2C(=O)C2=C(O)[C@]3(O)C(=O)C(C(N)=O)=C(O)[C@@H](N(C)C)[C@@H]3[C@@H](O)[C@@H]21	Brugia malayi		SCID mouse, peritoneal cavity	dose not given, 6 weeks post-treatment, dosing x42d		minimum microfilaria count	0 microfilariae per mouse
CC1=C(Cn2cnc([N+](=O)[O-])n2)C(=O)c2ccccc2C1=O	Schistosoma mansoni		adult worms	25 µM, 24 h		killing	41.7%

SMILES	organism	test	system	conditions	scale	quantity	result
Cc1cc(OC(C)C)ccc1C(=O)C(C)(C)NC(=O)c1sccc1C	Pyrenophora graminea	mycelial growth	PSA medium	20 °C		EC50	0.26 µg/mL
COC(=O)[C@H](Cc1c[nH]c2ccccc12)NCc1cc2ccccc2nc1OC	Pseudomonas aeruginosa			128 µg/mL, with: pentamidine 50 µM	reference: control	growth	64.7%
N=C(N)c1ccc(OCc2cc(COc3ccc(C(=N)N)cc3)cc(-c3ccccc3)c2)cc1	Escherichia coli	checkerboard	mcr-1 polymyxin-resistant	unit not given, with: rifampicin	lower = stronger synergy	FICI	0.047
COc1ccc(Nc2cnnc3cc(-c4ccc(S(=O)(=O)N5CCN(C)CC5)cc4)ccc23)cc1	Schistosoma mansoni		adult worms	10 µM, 24 h	direction not given	phenotypic severity score	0
CC(=O)NC[C@H]1CN(c2ccc(N3CCOCC3)c(F)c2)C(=O)O1	Staphylococcus aureus	broth microdilution	methicillin-susceptible isolates			MIC90	0.5 µg/mL (≈ 1.48 µM)
CC(C)n1ncc2c(C(=O)NCC3(C)CNC3)cc(C3CC3)nc21	Enterovirus D68	cytopathic effect	RD, US/MO/14-18947	5000 nM		cell protection	104% and 105%
Nc1nc(-c2ccccc2)nc2[nH]nc(Nc3ccc(C(F)(F)F)cc3)c12	coxsackievirus B3		31-1-93, NMRI mice, CVB3 chronic myocarditis	oral, 100 mg/kg twice daily, day 19, dosed days 3 to 10, score scale 0 to 7	direction not given	clinical score	0.3
COC(=O)[C@H](Cc1c[nH]c2ccccc12)NCc1cc2ccccc2nc1SC	Pseudomonas aeruginosa			64 µg/mL, with: pentamidine 100 µM	reference: control	growth	58.2%
Cc1ccc(NC(=O)N2Cc3[nH]cnc3C[C@H]2c2nc(-c3ccc4c(c3)OCO4)no2)cc1	Caenorhabditis elegans		N2	3.125 µM		median lifespan	21 days
N=C(N)c1ccc(OCCCCCOc2ccc(C(=N)N)cc2)cc1	Escherichia coli		W3110	in combination, checkerboard, with: rifampicin		MIC	50 µg/mL
C[C@H](CCCC(C)(C)O)[C@H]1CC[C@H]2[C@@H]3CC=C4C[C@@H](O)CC[C@]4(C)[C@H]3CC[C@]12C	Human rotavirus		Caco-2, Wa			EC50	190 nM
CC1=C(Cc2cn(CCN3CCN(C(=O)OC(C)(C)C)CC3)nn2)C(=O)c2ccccc2C1=O	Schistosoma mansoni		adult worms	10 µM, 72 h		killing	44.4%
CN1CCN(c2ncc(-c3ccc4nncc(Nc5cnccn5)c4c3)cn2)CC1	Schistosoma mansoni		adult worms	10 µM, 1 h	direction not given	phenotypic severity score	0
C=CC(=O)ON=C1C=CC(=C(C#N)c2ccccc2)C=C1	Kluyveromyces marxianus	broth dilution	ATCC 204093	48 h, 37 °C		MFC	16 µg/mL (≈ 57.9 µM)
CC1=C(Cn2cc(CO)nn2)C(=O)c2ccccc2C1=O	Schistosoma mansoni		adult worms	10 µM, 24 h		killing	39.4%
O=C(Nc1ccc([N+](=O)[O-])cc1Cl)c1cc(Cl)ccc1O	human adenovirus C5 wild type	qPCR	A549	100 nM, 24 h post-infection	reference: DMSO control	viral genome replication	decreased
CC(C)[C@@H](C)Nc1nc(-c2cccs2)nc(Cl)c1-c1c(F)cc(N)cc1F	Schistosoma mansoni	worm motility	adult worms ex vivo	24 h		EC50	< 300 nM
CC1=C(Cn2cc(CN3CCSC3)nn2)C(=O)c2ccccc2C1=O	Schistosoma mansoni		adult worms	25 µM, 48 h		killing	46.4%
Cc1ccc(Nc2cnnc3ccc(-c4ccc(S(=O)(=O)N5CCN(C)CC5)cc4)cc23)cn1	Schistosoma mansoni		adult worms	10 µM, 24 h	direction not given	phenotypic severity score	2
CC1=C(Cn2cc(CN3CCNCC3)nn2)C(=O)c2ccccc2C1=O	Schistosoma mansoni		adult worms	10 µM, 48 h		killing	46.2%
C[C@@H](CO)CCC[C@@H](C)[C@H]1CC[C@H]2[C@@H]3CC=C4C[C@@H](O)CC[C@]4(C)[C@H]3CC[C@]12C	Human rotavirus		MA104, Wa			EC50	260 nM

A few entries again:
SMILES	organism	test	system	conditions	scale	quantity	result
CC1=C(Cn2cc(CO)nn2)C(=O)c2ccccc2C1=O	Schistosoma mansoni		adult worms	10 µM, 24 h		killing	39.4%
O=C(Nc1ccc([N+](=O)[O-])cc1Cl)c1cc(Cl)ccc1O	human adenovirus C5 wild type	qPCR	A549	100 nM, 24 h post-infection	reference: DMSO control	viral genome replication	decreased
